Experimental data from different studies.
A part holds a random share of what one study measured.

Sample 1
Target: Interferon regulatory factor 7, full length, phosphomimetic (IRF7, Homo sapiens, UniProt Q92985, residues 1-503, S101K/S471D/S472D/S475D/S476D/S477D/S483D/S484D/S487D)
UniProt Q92985, sequence (whole entry, unmodified, looked up): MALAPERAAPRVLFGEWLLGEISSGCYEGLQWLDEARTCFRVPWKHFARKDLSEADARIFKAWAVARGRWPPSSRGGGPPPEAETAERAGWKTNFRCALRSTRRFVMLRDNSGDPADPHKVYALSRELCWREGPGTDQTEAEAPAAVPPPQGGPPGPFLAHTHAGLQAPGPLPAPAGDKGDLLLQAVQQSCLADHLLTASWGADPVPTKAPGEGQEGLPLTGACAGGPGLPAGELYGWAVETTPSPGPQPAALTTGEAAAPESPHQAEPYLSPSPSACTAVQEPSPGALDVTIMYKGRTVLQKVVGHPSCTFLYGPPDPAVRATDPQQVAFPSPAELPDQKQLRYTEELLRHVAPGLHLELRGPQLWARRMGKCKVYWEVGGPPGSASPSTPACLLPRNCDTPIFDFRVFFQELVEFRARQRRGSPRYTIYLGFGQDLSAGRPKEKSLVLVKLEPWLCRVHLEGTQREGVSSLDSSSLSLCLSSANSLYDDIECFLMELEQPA
Technique: protein-binding microarray
Molecule type: double-stranded DNA, one strand shown
Sample: in vitro
Concentration: 250 nM
Notes: 60-bp whole probe
With: salmon DNA 0.4 mg/ml
Reference: random background probes
Reading: higher = stronger binding
Constant ends, left off below: GCCTAGCAC … GTCTTGATTCGCTTGACGCTGCTG
Strand	log fluorescence
TCAATTTTTTTTATCAAACTGTGCTAG	0.46 z-score
GACGGTTTCATTTTCCTGACGTGCTAG	6.92 z-score
TTAGGTTTCGACTGTCGGTTAGTGCTA	4.74 z-score
CAACCTATAGGTTCAACGACGTGCTAG	0.188 z-score
TTAGAAGTGAGTATCGATTAGTGCTAG	0.262 z-score
ACATATTTGTTTCCATTTTCGTGCTAG	3.29 z-score
TTAGGACTGGGGTTTCGGTTTGTGCTA	9.94 z-score
TAGGTTTCACTTTCCAAAACGTGCTAG	11.9 z-score
GGCATTTTCGGGTAGATGGCCGTGCTA	0.71 z-score
TCACTTTCAGTTTTCCTACTGTGCTAG	2.81 z-score
TCATACATGTGTTTAAAACTGTGCTAG	0.333 z-score
GCCGGTATCCTTATCCTGACGTGCTAG	0.393 z-score
GACGAACGGAGACTGGAGACGTGCTAG	-0.201 z-score
TTAGGACTGGGGCTTCGGTTAGTGCTA	-0.674 z-score
TTAGATTTCGGGTATTGATTAGTGCTA	0.782 z-score
TTAGCTTTCGGGACTGGGTTAGTGCTA	0.309 z-score
TTAGGACTGGGGTAGCGGTTAGTGCTA	-0.765 z-score
GACGGTATCGACACTGGGAACGTGCTA	-0.287 z-score
TTAGATATCAGTTTCGGTTAGTGCTAG	8.58 z-score

Sample 2
Target: RING finger protein unkempt homolog, zinc fingers 1-6, GST-SBP tag (UNK, Homo sapiens, UniProt Q9C0B0, residues 30-357)
UniProt Q9C0B0, sequence (30-357, looked up): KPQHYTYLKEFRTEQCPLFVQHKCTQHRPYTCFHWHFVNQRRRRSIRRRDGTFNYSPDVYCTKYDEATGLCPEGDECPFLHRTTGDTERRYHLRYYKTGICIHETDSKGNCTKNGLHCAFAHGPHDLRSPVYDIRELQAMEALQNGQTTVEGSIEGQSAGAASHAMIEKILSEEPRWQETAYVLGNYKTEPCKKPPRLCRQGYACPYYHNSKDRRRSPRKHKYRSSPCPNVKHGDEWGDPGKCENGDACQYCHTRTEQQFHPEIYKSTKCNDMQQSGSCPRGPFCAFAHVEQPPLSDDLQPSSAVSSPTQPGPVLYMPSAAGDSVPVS
Technique: RNA Bind-n-Seq
Molecule type: RNA
Sample: in vitro
Concentration: not given
Notes: RNA with constant flanks, human-mouse chimeric sites, ends assumed
Reference: input RNA pool
Reading: higher = stronger binding
Constant ends, left off below: GGGAGUUCUACAGUCCGACGAUC … CAACAGAGGAUUGAGCAUCA
Strand	bound/input enrichment
UCCCAAAUCCAGCAGCUAGAAGGAGCCAAUUGUUUGUGCCUGGAAAUACAGGGAAGGCGAUAACAUUGUACAUUGGUUUACAUUUUUUCCCCCUGUGGAUUUUUCUAGAGGUCAUAGUGC	0.797 ratio
AAAGAGUGGAUAGAGUGUGCACACGGGAUCGGUGGGACUCGGGCAGAAAAGGAGUGCAAGAUAGAGUUCGAUGACUUCGUAGAGUGUUUGCUUCGGUACAAAACGAUGAGGCGAAUGCAU	0.351 ratio
CUGUGUGUGCUGAAUAAAUGGCUUGUAAAGAAGUUUUUCCAAGCUGUAACCCAUGCUUCCCUUAGAGUUGCUGCAAAAUGUUCUUCCUGAUAUUGAUUUUAUUUGUUAACUGAAGGUCUC	0.533 ratio
GAUCCACAGUGGUCUGAGGAACAGCUGAUUGCUGCAAAAUUCUGUUUUGCUGGCCUUCUUAUAGGCCAGACUGAAGUGGACAUCAUGAGUCAUGCCACACAAGCUAUUUUUGAAAUUCUG	0.251 ratio
AAAGCCCAAGUAUUUUGAAAAAACUCGAACAGAUUUAACAAGGGUAGCCAGCUUGGAGUCUAGCAACUUGCCAAUGUUGCUUACCAACUGGGGGCUUGUUUUUCUUUUCUUCUUUCAAAU	0.167 ratio
GCUGAAAAUGAAGAAGAGGCAGCUGAUGUCUGGUACAACCUGGGGCAUGUAGCUGUGGGAAUCGGAGAUACAAACUUGGCCCACCAAUGCUUCAGGCUGGCCCUGGUCCACAACAACCAC	0.146 ratio
CGCUGGCCCAAGCUGAUGGACUCUGAUGGCCUCCAUCAAGGUAUUAUGUGUGCCUUCUCUUAGUCCCUUCUGGGUUGAUGUUAUGAAUCUCAGUACUGUGGUUUGAAAGCACCAGCUUUG	0.466 ratio
UUGCUACUGACUCCCUGGGUCAAGUUCCUGUGGGAAUCAUACAGGCAGUGUUUGGACCUUCUUCGAAACAAUUCUAGAGUAGAGCGCCUGUACCAUGAUAUCGCCCAACAAGCUUUCAAA	0.134 ratio
CACUCGAGGGCUGCCGUUUUCUGUUUCUCCCUGGGCUGCGGAAAGCCAGAAGAUUUUAUCUAGUUUGUACAAGGCUGCUGGUGUUCCCUCUUUUUUUCCACGAGGGUGUUUUUGGCUGCA	0.598 ratio
AUAAAAGCUAUGUUGAGUGGUCCAGGUCAGUUUGCUGAGAAUGAAACCAACGAGGUCAAUUUUAGAGAGAUCCCCUCACAUGUGCUAUCGAAAGUAUGCAUGUAUUUUACCUACAAGGUC	0.334 ratio
UUGAAAACUGAUUCAAGUAAGUUUGAGUAUCACAAUGUUAGCUUUCUAAUUCCAUAAAAGUACUUGGUACAGUUUCUUUAUAAUCUGACAUCACCCCAGCGCCAUUUGUAAAGAGCAACU	0.793 ratio

Sample 3
Target: Histone acetyltransferase KAT6A, winged helix 2, GST fusion (KAT6A, Homo sapiens, UniProt Q92794, residues 85-181)
Technique: protein binding microarray
Molecule type: double-stranded DNA, one strand shown
Sample: in vitro
Concentration: not given
Notes: 8-mer, flanks averaged, mean of 2 arrays, mostly near background
Reference: not given
Reading: higher = stronger binding
Residues (chain): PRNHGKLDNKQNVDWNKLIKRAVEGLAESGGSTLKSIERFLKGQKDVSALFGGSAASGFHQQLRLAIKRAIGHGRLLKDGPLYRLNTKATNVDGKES
Strand	E-score
ATCAACAC	0.0138
CCACGCGC	-0.00781
ACTCACAC	0.0529
CTCTTGCC	0.0229
GGCGCTTA	-0.0961
ACACCGTA	-0.25
AGATTAAT	0.0652
ACCCTATG	-0.0307
ACCGCAGC	0.0918
CCCCAAAG	-0.0264
CTGGTTCC	0.063
CTGATTCC	-0.065
CTTATGTC	0.028
GCCAGACC	0.069
CAGCCACG	-0.0256
ATGTAATA	-0.0777
GGTGGGAA	0.0881
TAGTGACA	-0.0139
AGTAAATA	0.0365
TGCGTAAA	-0.0474
CGCGTACC	0.0584
ACAGCAAT	0.141
CAGGGAAA	-0.0433
GCGTCTGA	0.0362

Sample 4
Target: RNA binding protein fox-1 homolog 2, RRM domain, GST-SBP tag (RBFOX2, Homo sapiens, UniProt O43251-10, residues 100-194)
Technique: RNA Bind-n-Seq
Molecule type: RNA
Sample: in vitro
Concentration: 365 nM
Notes: natural RNA segment, single round, ends assumed
Reference: no-protein control
Reading: higher = stronger binding
Constant ends, left off below: GGGAGUUCUACAGUCCGACGAUC … UGGAAUUCUCGGGUGCCAA
Target sequence (chain): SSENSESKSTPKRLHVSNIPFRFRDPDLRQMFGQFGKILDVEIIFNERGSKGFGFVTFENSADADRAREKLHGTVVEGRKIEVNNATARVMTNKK
Strand	RBNS enrichment (R)
AGUGCUGAGGGCCAGUGUUGACCCACACUACCCUCCCUUGACCAGCUGUCUGGGACCGGAAACCAGCUUUGUCUCCAGGUAGAGACAACAUCCUGUGACUGCCAGGCAGA	0.315
UGAUACUAAUAUAAUUAAGUUCAUCUUUGAAAUACAUCUUUGUGCGUAGAGCCAAAAAAAGAGAUAAAAUUAAUAAUAGUUCACUUGUUAUUUGAGAUUAAUUUGGCAUU	0.339
CUCACCCCGUCUGGGGUUCAGCCCCUCCUCUGCCACCUCCCCUAUCCACCCAGCCCAUUCUCUCUCCUGUCCAACCUAACCCCUUUCCUGCGGGCUUUUCCCCGGUCCCU	0.852
GGGGAGGUCACUCAAUUCAAAAUUUUCUGUAUGAAAGCAUUUUUCACCAAAAUGAGCCUCAUCCCUUUAUGCAACACAUAACCUUACUGAGGGAGGGAAAUACAGAAGCC	0.362
AGGAUCUUACAACACAGCAAGUAGCAUAGAGCUCUUUCCUUCCUCUUUUUUGGGGAGGUUGGGGUCAGGGGUUGUUUCUUUGAGAUUUAAGUUUUCAUUUUUGAGGGGUA	0.673
UCACUUUCAGAAAUUCAGGUGCACAAGGGAAACUUUCAAGUACGAUCCAAUUAUCUUUCUGAUCCUUAAAACACAUGACUUCCAGCUGAAGAGAUGGCUCAGUGGUUCAG	0.312
GUGUUUUUAAAUGGAAGGGAUUUGUGGCAUCCACUUGCUGAGCGGUGAACAGAGCGAGACGCAGUUAUGUGUGCACCGGCAGAUACUGACACUGAUGGCUGACAGUGUGU	2.33
ACAGAAUGUGUUCUUUGUCCUUUUCCAGCCCUGCUCUUCUCUGGGAAGAUACAGGAGUCUGCCACCUGUCAUAGAAGGGUGCUGCCAACUUGAUGCUCUACCUGCCACCA	0.403
UGUGACUGGUAUUUUCUCAUGAUGAAUCCUCUCAGGACAUGGCAGAGCUUGGCGAGUACAAAGGGAGAGGAAGACAUUUGAACUUUAGAACUUUGUUUCAGCGUGACUCU	0.816
